Results gathered from unrelated publications.
Parts stem from different laboratories: compare values within a part only.

Sample 1 — technique: protein binding microarray; molecule type: double-stranded DNA, one strand shown; medium: in vitro; tested at: not given; baseline: not given; direction: higher = stronger binding
Target: Histone acetyltransferase KAT6A, winged helix 1, GST fusion (KAT6A, Homo sapiens, UniProt Q92794, residues 1-85)
Notes: 8-mer, flanks averaged, mean of 2 arrays, mostly near background
Construct (chain): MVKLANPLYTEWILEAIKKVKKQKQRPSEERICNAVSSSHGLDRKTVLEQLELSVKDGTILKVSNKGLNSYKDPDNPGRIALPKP
Strand | E-score
GCCTATAA | -0.116
TATTAATA | 0.0938
CTTTCACA | -0.119
CTAATTAA | -0.0616
AGCATGCC | 0.11
GCTATCTA | -0.0904
ACACCCCT | -0.0985
CCGAACCA | 0.03
AGTCTCAT | -0.212

Sample 2 — technique: universal PBM; molecule type: double-stranded DNA, one strand shown; medium: in vitro; tested at: not given; direction: higher = stronger binding
Target: Sal-like protein 4, full length isoform B (SALL4, Homo sapiens, UniProt Q9UJQ4-2, residues 1-616)
Notes: 8-mer, flanks averaged, mean of replicates
Strand | E-score
TGGATTAA | 0.253
CGGACGCC | -0.39
ATGCTGAC | 0.0459
GGTGACAC | -0.186
AGCACCTG | -0.00335
AGAAGTTG | -0.0894
GTGGAGGA | -0.0215
CCCTGCCA | -0.165
ACGAATTA | 0.111

Sample 3 — technique: RNA Bind-n-Seq; molecule type: RNA; medium: in vitro; tested at: 100 nM; baseline: input RNA pool; direction: higher = stronger binding
Target: RING finger protein unkempt homolog, zinc fingers 1-6, SBP tag (UNK, Homo sapiens, UniProt Q9C0B0, residues 30-357)
UniProt Q9C0B0, sequence (30-357, looked up): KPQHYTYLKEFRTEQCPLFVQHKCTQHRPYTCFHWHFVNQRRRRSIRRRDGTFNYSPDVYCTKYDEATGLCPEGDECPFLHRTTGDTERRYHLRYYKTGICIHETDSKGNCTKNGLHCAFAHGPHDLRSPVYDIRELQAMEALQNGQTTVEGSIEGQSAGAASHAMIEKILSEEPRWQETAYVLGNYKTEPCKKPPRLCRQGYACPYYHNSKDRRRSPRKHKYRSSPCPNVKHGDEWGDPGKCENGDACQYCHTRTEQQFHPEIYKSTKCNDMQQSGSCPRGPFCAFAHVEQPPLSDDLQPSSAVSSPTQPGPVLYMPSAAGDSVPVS
Notes: RNA with constant flanks, vertebrate orthologous sites, ends assumed
Shared flanks, not repeated: GGGAGUUCUACAGUCCGACGAUC … CAACAGAGGAUUGAGCAUCA
Strand | bound/input enrichment
CAGUCAUGGAGAAAAAUAUAUUAAAAUAAUUUGAUGGCACUGAUGUUAAUUCUAGUCUAUUAGUUUUAUAAAAGUUAGGGCUCUUAUUUAGGAACAACAGGAAGUGACUGUUAAGGAGAA | 3.27 ratio
UCCCCUGGGCCGGGACAGCCUUUUUUUUUUAAAUGUCUUGAAACCUAAACUCUGUGCUUGUAGAAGACUGUAACCUUUUUUGUCUUUUUUUUUUUUUUUUAAACCAACCUCCACCUCCAG | 2.54 ratio
GCAAUGAAAAAACAGCCCUUCUCCCAGCCCCCUUUUCACUAGGAGAUACAAACGUUACCAUAGAAGAGCAAUUAAACUCAAUAAAUUUAUCUUUUCAGGAUGAUCCAGACUCCAGUACCA | 1.92 ratio
GGGACGCUUUGAUGUAAAAAUUGAAGUUAAGAGCUGAUCAUAAGCACAAAUCCUCCCCUCUAGCCAUUUAAUAAGUUAAAAAAUUACAAAAACAAAACCUACUAGUCUUGAACAAACUGU | 9.03 ratio
CUGGUCUUCCACGUAGGCUCAGCCUCAGAUCUAUAGGAUUUAUGACAAAUGUAUUCUAUCUAGUUAAGUUGAGUUUAUUAUUUUUUUAAUAAGCCUGUAAAUAAAGAUGGCAUCUUCUAC | 0.457 ratio
UAAUUGUAAUGCAGAAAUCAUUCUAGUUCUAAAUUAGCUACAGUGAUAACUAGUCUGCACUAAGAAUUGUUUACCUUUUAAAUUAUCUGCUUUGUCUGAUACAUAAAACAUAUCAAAAUU | 0.461 ratio
GUUGUGAUCCCUUUAACAUGCACAGAAAGCUGUCAAAGAAAAACUUGCGUGCAAUUGACUUAGAUGACGCAACUUUUCUAAGUGCCAAGUUUGGAAGACAGUUUGUACCUGGCUGGAAAC | 0.342 ratio

Single results of other studies
Substance | target | test | system | conditions | how to read | quantity | value
PhoQ, residues 284 288 289 292 302 303 SMMNNA | PhoP, residues 12 14 15 18 19 TPLRH (Escherichia coli, UniProt P23836) | Sort-seq, refers to: YFP reporter | E. coli | PhoQ-PhoP variant library, with: 10 µM Mg2+ | baseline: high Mg2+ state, higher = stronger signaling | fold induction | 2.01

A few entries again (sample 2):
Strand | E-score
ATGCTGAC | 0.0459
GGTGACAC | -0.186
